Measured values from different studies.
Every numbered part comes from another study and shows a few of its results, in no order. Values joined by “and” are separate records of one study, mostly repeats; a detail may differ.
UniProt P11802, sequence (whole entry, looked up): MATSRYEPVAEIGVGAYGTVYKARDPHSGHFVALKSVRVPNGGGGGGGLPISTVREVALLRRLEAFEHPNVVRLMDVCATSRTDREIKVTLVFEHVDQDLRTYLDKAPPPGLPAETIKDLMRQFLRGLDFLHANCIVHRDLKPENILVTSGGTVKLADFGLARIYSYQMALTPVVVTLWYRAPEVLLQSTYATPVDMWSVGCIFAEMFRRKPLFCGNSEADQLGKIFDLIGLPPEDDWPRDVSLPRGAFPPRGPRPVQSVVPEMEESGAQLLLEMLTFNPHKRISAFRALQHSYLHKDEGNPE
UniProt Q9BVS4, sequence (whole entry, looked up): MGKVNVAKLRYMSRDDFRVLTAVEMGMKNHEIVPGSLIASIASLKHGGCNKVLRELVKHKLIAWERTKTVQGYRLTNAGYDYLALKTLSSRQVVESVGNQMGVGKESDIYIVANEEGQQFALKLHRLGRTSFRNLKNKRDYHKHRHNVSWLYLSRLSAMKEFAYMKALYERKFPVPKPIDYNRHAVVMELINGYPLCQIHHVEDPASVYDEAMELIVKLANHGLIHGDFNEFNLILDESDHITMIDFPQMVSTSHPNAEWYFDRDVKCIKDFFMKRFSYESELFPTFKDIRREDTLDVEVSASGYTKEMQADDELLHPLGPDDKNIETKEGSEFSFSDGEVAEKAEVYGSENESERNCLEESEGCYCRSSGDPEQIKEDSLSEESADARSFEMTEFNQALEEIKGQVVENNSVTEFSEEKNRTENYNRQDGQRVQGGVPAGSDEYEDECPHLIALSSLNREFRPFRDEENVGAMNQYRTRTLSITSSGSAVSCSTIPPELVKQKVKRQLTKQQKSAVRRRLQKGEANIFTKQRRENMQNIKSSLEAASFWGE
UniProt P37173, sequence (whole entry, looked up): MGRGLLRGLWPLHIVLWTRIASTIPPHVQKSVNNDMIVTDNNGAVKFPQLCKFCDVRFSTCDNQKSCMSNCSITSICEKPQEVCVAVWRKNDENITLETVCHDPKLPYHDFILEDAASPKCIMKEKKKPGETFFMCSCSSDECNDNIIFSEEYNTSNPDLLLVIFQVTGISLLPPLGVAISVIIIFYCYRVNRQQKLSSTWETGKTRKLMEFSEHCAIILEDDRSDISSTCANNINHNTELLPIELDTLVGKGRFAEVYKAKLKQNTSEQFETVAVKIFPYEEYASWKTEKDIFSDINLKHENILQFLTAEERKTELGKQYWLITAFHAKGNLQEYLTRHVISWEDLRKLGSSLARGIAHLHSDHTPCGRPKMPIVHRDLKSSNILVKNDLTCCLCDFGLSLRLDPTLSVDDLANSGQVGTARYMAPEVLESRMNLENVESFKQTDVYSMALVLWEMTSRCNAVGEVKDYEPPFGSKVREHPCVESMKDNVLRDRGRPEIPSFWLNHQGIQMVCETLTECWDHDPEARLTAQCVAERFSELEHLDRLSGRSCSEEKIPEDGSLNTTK
UniProt Q00535, sequence (whole entry, looked up): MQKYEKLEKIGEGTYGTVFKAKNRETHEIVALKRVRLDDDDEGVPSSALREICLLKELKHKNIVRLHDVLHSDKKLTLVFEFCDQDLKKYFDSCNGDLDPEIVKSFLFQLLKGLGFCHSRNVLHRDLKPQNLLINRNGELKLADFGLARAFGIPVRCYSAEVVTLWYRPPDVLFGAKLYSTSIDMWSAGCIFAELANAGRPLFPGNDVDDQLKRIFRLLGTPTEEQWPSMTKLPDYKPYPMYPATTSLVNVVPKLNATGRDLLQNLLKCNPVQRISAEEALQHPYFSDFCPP
UniProt Q9Y2U5, sequence (whole entry, looked up): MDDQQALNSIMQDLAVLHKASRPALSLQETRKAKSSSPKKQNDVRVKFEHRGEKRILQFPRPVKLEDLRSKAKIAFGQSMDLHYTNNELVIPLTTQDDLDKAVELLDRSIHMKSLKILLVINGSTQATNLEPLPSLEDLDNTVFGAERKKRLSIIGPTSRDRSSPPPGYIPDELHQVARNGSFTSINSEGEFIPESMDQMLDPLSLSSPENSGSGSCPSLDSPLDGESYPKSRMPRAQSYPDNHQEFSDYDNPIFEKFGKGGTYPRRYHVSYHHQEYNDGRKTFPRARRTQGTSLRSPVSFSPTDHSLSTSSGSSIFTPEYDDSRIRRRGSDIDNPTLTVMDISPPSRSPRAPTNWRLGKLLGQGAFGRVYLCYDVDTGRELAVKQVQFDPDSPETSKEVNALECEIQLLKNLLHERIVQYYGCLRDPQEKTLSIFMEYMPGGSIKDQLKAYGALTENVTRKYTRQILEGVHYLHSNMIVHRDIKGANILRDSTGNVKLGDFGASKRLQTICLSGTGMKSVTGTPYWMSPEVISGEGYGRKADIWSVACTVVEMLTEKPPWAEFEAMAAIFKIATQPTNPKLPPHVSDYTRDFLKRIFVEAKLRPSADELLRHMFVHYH

Study 1 — observed: cell-free assay; technique: competition with immobilised ligand; concentration: 1 µM
Compound: C[C@@]1(Cc2ccc(C#N)cc2)C(=O)N(c2cc(Cl)cc(Cl)c2)c2ncc(C(=O)NC3(c4nc(C5CCC5)no4)CC3)n21
| target | remaining binding |
| --- | --- |
| TBK1 (Homo sapiens, UniProt Q9UHD2) | 95% |
| PHKG1 (Homo sapiens, UniProt Q16816) | 100% |
| MAPK9 (Homo sapiens, UniProt P45984) | 100% |
| FYN (Homo sapiens, UniProt P06241) | 89% |
| MTOR (Homo sapiens, UniProt P42345) | 91% |
| NTRK1 (Homo sapiens, UniProt P04629) | 100% |
| GRK7 (Homo sapiens, UniProt Q8WTQ7) | 100% |
| OXSR1 (Homo sapiens, UniProt O95747) | 84% |
| PAK3 (Homo sapiens, UniProt O75914) | 100% |
| PAK4 (Homo sapiens, UniProt O96013) | 98% |
| Cyclin-dependent kinase 4, with cyclin D1 (CDK4, Homo sapiens, UniProt P11802) | 100% |
| MAP3K10 (Homo sapiens, UniProt Q02779) | 100% |
| RIOK2 (Homo sapiens, UniProt Q9BVS4) | 100% |
| MAP3K2 (Homo sapiens, UniProt Q9Y2U5) | 100% |

Study 2 — observed: enzyme activity; mode: inhibitor; concentration: 77 µM; reference: untreated
Target: DNA polymerase theta, ATPase domain (POLQ, Homo sapiens, UniProt O75417)
UniProt O75417, sequence (whole entry, unmodified, looked up): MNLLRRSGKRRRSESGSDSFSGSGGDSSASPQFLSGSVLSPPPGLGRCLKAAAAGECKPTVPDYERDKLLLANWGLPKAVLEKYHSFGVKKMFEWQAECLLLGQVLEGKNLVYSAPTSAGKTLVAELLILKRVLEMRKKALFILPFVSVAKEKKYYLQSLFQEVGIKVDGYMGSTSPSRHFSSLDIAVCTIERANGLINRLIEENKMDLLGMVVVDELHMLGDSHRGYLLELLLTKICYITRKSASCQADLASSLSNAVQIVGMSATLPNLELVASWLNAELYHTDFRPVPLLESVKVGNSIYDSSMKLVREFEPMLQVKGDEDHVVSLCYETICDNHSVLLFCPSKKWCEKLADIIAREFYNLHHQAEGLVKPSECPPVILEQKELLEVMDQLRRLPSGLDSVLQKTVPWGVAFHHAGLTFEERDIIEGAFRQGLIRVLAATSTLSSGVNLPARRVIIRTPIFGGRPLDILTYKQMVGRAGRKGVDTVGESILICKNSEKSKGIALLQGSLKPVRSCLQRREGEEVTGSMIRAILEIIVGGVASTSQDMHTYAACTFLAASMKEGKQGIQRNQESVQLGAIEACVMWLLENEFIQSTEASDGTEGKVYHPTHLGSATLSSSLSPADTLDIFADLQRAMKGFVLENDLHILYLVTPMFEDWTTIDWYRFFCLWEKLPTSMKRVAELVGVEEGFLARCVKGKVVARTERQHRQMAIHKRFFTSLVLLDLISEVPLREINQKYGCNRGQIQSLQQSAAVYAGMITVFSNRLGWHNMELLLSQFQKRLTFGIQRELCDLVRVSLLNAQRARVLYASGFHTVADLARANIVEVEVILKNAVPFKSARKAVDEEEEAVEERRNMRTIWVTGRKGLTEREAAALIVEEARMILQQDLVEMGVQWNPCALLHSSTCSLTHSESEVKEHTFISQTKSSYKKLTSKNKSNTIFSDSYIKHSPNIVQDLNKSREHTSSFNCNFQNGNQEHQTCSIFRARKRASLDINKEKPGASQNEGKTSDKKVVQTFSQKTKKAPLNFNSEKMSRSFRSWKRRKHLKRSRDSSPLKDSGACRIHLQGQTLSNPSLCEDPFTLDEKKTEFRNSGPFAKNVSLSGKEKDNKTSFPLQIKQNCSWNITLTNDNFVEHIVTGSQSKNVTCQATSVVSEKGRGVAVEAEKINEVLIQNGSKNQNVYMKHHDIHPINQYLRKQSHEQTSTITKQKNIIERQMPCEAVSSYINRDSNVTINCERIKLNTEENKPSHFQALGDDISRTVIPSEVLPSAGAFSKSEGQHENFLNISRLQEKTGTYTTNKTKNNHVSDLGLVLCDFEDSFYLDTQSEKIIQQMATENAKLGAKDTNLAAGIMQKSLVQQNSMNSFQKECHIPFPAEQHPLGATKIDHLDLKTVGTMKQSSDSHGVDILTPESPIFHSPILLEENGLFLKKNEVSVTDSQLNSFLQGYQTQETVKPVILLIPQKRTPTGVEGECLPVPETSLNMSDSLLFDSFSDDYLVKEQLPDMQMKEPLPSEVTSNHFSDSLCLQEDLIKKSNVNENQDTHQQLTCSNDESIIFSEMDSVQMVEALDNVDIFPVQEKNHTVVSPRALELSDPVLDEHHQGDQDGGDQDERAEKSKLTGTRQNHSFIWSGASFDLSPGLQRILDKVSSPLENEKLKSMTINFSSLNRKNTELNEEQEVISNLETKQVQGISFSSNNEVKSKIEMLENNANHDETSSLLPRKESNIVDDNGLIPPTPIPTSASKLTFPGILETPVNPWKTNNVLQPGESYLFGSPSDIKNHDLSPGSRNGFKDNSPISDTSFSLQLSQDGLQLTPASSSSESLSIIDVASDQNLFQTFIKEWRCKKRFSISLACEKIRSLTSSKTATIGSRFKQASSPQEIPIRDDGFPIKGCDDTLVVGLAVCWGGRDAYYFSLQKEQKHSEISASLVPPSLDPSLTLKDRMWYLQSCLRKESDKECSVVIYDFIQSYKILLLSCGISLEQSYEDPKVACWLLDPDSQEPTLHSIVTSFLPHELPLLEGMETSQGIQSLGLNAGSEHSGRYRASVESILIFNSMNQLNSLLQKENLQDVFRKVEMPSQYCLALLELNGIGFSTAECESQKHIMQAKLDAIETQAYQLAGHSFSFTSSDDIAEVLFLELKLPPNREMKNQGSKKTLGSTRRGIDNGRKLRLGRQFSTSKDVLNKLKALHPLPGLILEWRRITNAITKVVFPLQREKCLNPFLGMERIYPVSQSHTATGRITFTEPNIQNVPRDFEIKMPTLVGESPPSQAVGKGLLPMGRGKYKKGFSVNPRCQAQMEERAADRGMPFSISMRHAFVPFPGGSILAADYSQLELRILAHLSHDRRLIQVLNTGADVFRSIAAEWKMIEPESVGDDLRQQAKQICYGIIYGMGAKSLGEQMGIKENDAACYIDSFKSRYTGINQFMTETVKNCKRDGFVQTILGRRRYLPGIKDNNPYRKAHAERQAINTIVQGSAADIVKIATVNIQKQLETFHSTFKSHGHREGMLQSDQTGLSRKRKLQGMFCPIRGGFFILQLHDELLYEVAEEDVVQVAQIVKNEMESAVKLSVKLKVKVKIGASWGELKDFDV
| Compound | remaining activity |
| --- | --- |
| Nc1ccn([C@@H]2CS[C@H](CO)O2)c(=O)n1 | 100% |
| COc1cc2c(CCNC(C)=O)c[nH]c2cc1O | 103% |
| CC(=O)c1ccc2c(c1)N(CCCN1CCC(CCO)CC1)c1ccccc1S2 | 103% |
| Cc1cnc(NC(=O)Nc2cc(Br)c(C)cc2OC[C@@H]2CNCCO2)cn1 | 98% |
| O=C1c2c(O)cc(O)cc2O[C@H](c2cc(O)c(O)c(O)c2)[C@H]1O | 90.8% |
| O=C1CCc2cc(OCCCCc3nnnn3C3CCCCC3)ccc2N1 | 99.8% and 104% |
| Cc1ccc(C(=O)Nc2cccc(C(F)(F)F)c2)cc1Nc1nc(-c2cccnc2)nc2c1cnn2C | 102% |
| O=S(=O)(O)c1cc(O)ccc1O | 103% and 98.7% |
| Cc1c(CN2CCN(C(=O)[C@H](C)O)CC2)sc2c(N3CCOCC3)nc(-c3cnc(N)nc3)nc12 | 108% |

Study 3 — cell line: HaCaT; concentration: 100 µM; time: 36 h
| Structure (SMILES) | viability [%] |
| --- | --- |
| C/C=C(/C(=C/C)c1ccc(O)cc1)c1ccc(O)cc1 | 4.91 |
| N[C@@H](Cc1cc(I)c(Oc2ccc(O)c(I)c2)c(I)c1)C(=O)O | 67.4 |
| COc1ccccc1OCC(O)CO (stereo not drawn) | 86 |
| CN1[C@@H]2CCC[C@H]1C[C@@H](NC(=O)c1nn(C)c3ccccc13)C2 | 83.2 |
| CC[C@@H]1/C=C(\C)C[C@H](C)C[C@H](OC)[C@H]2O[C@@](O)(C(=O)C(=O)N3CCCC[C@H]3C(=O)O[C@H](/C(C)=C/[C@@H]3CC[C@H](Cl)[C@H](OC)C3)[C@H](C)[C@@H](O)CC1=O)[C@H](C)C[C@@H]2OC | 92 |
| Cc1ccc(Nc2nccc(N(C)c3ccc4c(C)n(C)nc4c3)n2)cc1S(N)(=O)=O | 93.7 |
| CC(C)C(=O)Oc1ccc(CO)cc1[C@H](CCN(C(C)C)C(C)C)c1ccccc1 | 5.06 |
| CO/N=C(\C(=O)N[C@@H]1C(=O)N2C(C(=O)O)=C(COC(N)=O)CS[C@H]12)c1ccco1 | 114 |
| O=C(NC(Cc1cc(=O)[nH]c2ccccc12)C(=O)O)c1ccc(Cl)cc1 (stereo not drawn) | 97.7 |
| NC(=O)c1cnccn1 | 99 |

Study 4 — observed: enzyme activity; mode: inhibitor; concentration: 0.5 µM; reference: control
Compound: CC(C)c1nn(-c2c(Cl)cccc2Cl)c2nc(Cc3ccc(OCCO)cc3)[nH]c(=O)c12
| target | remaining activity |
| --- | --- |
| STK11 (Homo sapiens, UniProt Q15831) | 47.7% |
| IKBKE (Homo sapiens, UniProt Q14164) | 95.6% |
| CHEK2 (Homo sapiens, UniProt O96017) | 98.8% |
| TGFBR1 (Homo sapiens, UniProt P36897) | 98% |
| GRK3 (Homo sapiens, UniProt P35626) | 87.9% |
| cGMP-dependent protein kinase 1, isoform beta (PRKG1, Homo sapiens, UniProt Q13976) | 99% |
| Cyclin-dependent kinase 5, with p25 (CDK5, Homo sapiens, UniProt Q00535) | 2.54% |
| CAMK2D (Homo sapiens, UniProt Q13557) | 85.7% |
| TGFBR2 (Homo sapiens, UniProt P37173) | 74.3% |
| IKBKB (Homo sapiens, UniProt O14920) | 103% |
| Cyclin-dependent kinase 4, with cyclin D1 (CDK4, Homo sapiens, UniProt P11802) | 86.8% |
| STK10 (Homo sapiens, UniProt O94804) | 96.6% |

Some of these lines once more (study 1):
| target | remaining binding |
| --- | --- |
| PAK3 (Homo sapiens, UniProt O75914) | 100% |
| MAP3K10 (Homo sapiens, UniProt Q02779) | 100% |
| PHKG1 (Homo sapiens, UniProt Q16816) | 100% |
| PAK4 (Homo sapiens, UniProt O96013) | 98% |
| TBK1 (Homo sapiens, UniProt Q9UHD2) | 95% |
